{"data": "Measured values gathered from unrelated publications", "note": "Values joined by “and” are separate records of one study, mostly repeats; a detail may differ. ± gives the spread as reported."}
{"Compound": "CC[C@H](C)[C@H](NC(=O)[C@H](CCCCN)NC(=O)CNC(=O)[C@H](CC(C)C)NC(=O)[C@H](Cc1ccccc1)NC(=O)[C@H](CCCCN)NC(=O)[C@H](CO)NC(=O)[C@H](Cc1ccccc1)NC(=O)[C@H](Cc1c[nH]c2ccccc12)NC(=O)[C@H](CCC(N)=O)NC(=O)[C@@H](NC(=O)[C@H](Cc1ccccc1)NC(=O)CCCCCNC(=O)CN1CCN(CC(=O)O)CCN(CC(=O)O)CCN(CC(=O)O)CC1)C(C)C)C(=O)N[C@@H](CCC(=O)O)C(=O)N1CCC[C@H]1C(=O)N[C@H](CC(=O)O)C(=O)N[C@H](C(=O)N[C@@H](CO)C(=O)N[C@@H](CCC(N)=O)C(=O)N[C@H](C(=O)N[C@@H](CCC(N)=O)C(=O)N[C@@H](CC(=O)O)C(=O)N1CCC[C@H]1C(=O)N[C@@H](CC(N)=O)C(=O)N[C@@H](CC(=O)O)C(=O)N[C@@H](CCC(N)=O)C(=O)N[C@@H](Cc1ccc(O)cc1)C(=O)N[C@@H](CCC(=O)O)C(=O)N1CCC[C@H]1C(=O)N[C@@H](Cc1ccccc1)C(=O)O)C(C)C)C(C)C [copper-64 labelled]", "test system": "female mice, EMT6 tumour-bearing, blood", "conditions": "2 h, uncleavable control tracer, checkpoint inhibitor-treated", "measurement": "tissue uptake", "value": "1.29 ± 0.34 %ID/g"}
{"Compound": "CC(=O)NCCCC[C@@H]1NC(=O)[C@H](Cc2c[nH]c3c(C)cccc23)NC(=O)[C@H]([C@@H](C)O)NC(=O)[C@H](CC(N)=O)NC(=O)[C@@H](NC(C)=O)C(C)(C)SSC(C)(C)[C@@H](C(=O)N[C@@H](Cc2ccc(OCCN)cc2)C(=O)N[C@@H](Cc2ccc3ccccc3c2)C(=O)NC2(C(=O)N[C@@H](CCC(=O)O)C(=O)N[C@@H](CC(N)=O)C(=O)N[C@@H](Cc3cccnc3)C(=O)N(C)CC(N)=O)CCOCC2)NC1=O", "test system": "rat, blood", "conditions": "0.0013 µM, 2 h", "measurement": "blood to plasma ratio", "value": "0.63 ± 0.09"}
{"Compound": "CC[C@H](C)[C@H](NC(=O)[C@H](Cc1ccc(O)cc1)NC(=O)[C@@H](NC(=O)[C@H](CCCNC(=N)N)NC(=O)[C@@H](N)CC(=O)O)C(C)C)C(=O)N[C@@H](Cc1c[nH]cn1)C(=O)N1CCC[C@H]1C(=O)O", "test system": "Beagle dog both sexes, plasma", "conditions": "subcutaneous, 10 mg/kg/day, day 0, median", "measurement": "Tmax", "value": "30 min"}
{"Compound": "CC(C)[C@@H]1NC(=O)CNC(=O)[C@H](CC(N)=O)NC(=O)[C@H](CCCNC(=N)N)NC(=O)[C@H](Cc2ccc(O)cc2)NC(=O)[C@H](C(C)C)NC(=O)[C@@H](NC(=O)[C@@H](NC(=O)[C@H](CC(N)=O)NC(=O)[C@H](Cc2c[nH]c3ccccc23)NC(=O)[C@H](C)NC(=O)[C@H](Cc2ccccc2)NC(=O)CNC(=O)[C@H](CCCCN)NC(=O)[C@H](Cc2ccccc2)NC(=O)[C@H](Cc2ccccc2)NC(=O)[C@H](CCCCN)NC(=O)OCC2c3ccccc3-c3ccccc32)C(C)C)CSSC[C@@H](C(=O)N[C@@H](Cc2c[nH]cn2)C(=O)N[C@@H](CCCNC(=N)N)C(=O)N[C@@H](CCCNC(=N)N)C(=O)N[C@@H](C)C(=O)N[C@@H](CC(N)=O)C(N)=O)NC(=O)[C@H](C(C)C)NC(=O)[C@H](CCCNC(=N)N)NC1=O", "test system": "ICR mice, serum", "conditions": "intraperitoneal, 5 mg/kg, day 5", "measurement": "albumin", "value": "34.8 ± 1.12 g/L"}
{"Compound": "C=Cc1c(C)c2cc3nc(c(CC(=O)O)c4[nH]c(cc5nc(cc1[nH]2)C(C)=C5CC)c(C)c4C(=O)O)[C@@H](CCC(=O)NCCCC[C@H](NC(C)=O)C(=O)N[C@@H](Cc1ccccc1)C(=O)N[C@@H](Cc1ccccc1)C(=O)N[C@H](C(=O)N[C@@H](CC(C)C)C(=O)N[C@@H](CCCCN)C(=O)N[C@@H](CO)C(=O)NCC(=O)N[C@@H](CCC(N)=O)C(=O)N[C@@H](Cc1ccc(O)cc1)C(=O)N[C@@H](C)C(=O)N[C@@H](CO)C(=O)N[C@@H](Cc1ccc(O)cc1)C(=O)N[C@@H](Cc1c[nH]cn1)C(=O)N[C@@H](CS)C(=O)N[C@@H](Cc1c[nH]c2ccccc12)C(=O)N[C@@H](CS)C(=O)N[C@@H](Cc1c[nH]c2ccccc12)C(=O)N[C@@H](CCCNC(=N)N)C(=O)N[C@@H](CC(=O)O)C(=O)N1CCC[C@H]1C(=O)NCC(=O)N[C@@H](CCCNC(=N)N)C(=O)N[C@@H](CO)C(=O)NCC(=O)NCC(=O)N[C@@H](CO)C(=O)N[C@@H](CCCCN)C(N)=O)C(C)C)[C@@H]3C", "test system": "mouse, blood", "conditions": "3 h", "measurement": "blood concentration", "value": "113 µg/mL"}
{"Compound": "CCCCCCCCCCCCCCCC(=O)N[C@@H](CCC(=O)NCCOCCOCCC(=O)NCCOCCOCCC(=O)NCCCC[C@H](NC(=O)[C@H](CC(=O)O)NC(=O)[C@H](CC(C)C)NC(=O)[C@H](Cc1ccc(O)cc1)NC(=O)[C@H](CCCCN)NC(=O)[C@H](CO)NC(=O)[C@H](Cc1ccc(O)cc1)NC(=O)[C@H](CC(=O)O)NC(=O)[C@H](CO)NC(=O)[C@@H](NC(=O)[C@H](Cc1ccccc1)NC(=O)[C@@H](NC(=O)CNC(=O)[C@H](CCC(N)=O)NC(=O)[C@@H](CO)NC(=O)[C@@H](N)Cc1c[nH]cn1)[C@@H](C)O)[C@@H](C)O)C(=O)N[C@@H](CCCNC(=N)N)C(=O)N[C@@H](CCCNC(=N)N)C(=O)N[C@@H](C)C(=O)N[C@@H](CCC(N)=O)C(=O)N[C@@H](CC(=O)O)C(=O)N[C@@H](Cc1ccccc1)C(=O)N[C@H](C(=O)N[C@@H](CCC(N)=O)C(=O)N[C@@H](Cc1c[nH]c2ccccc12)C(=O)N[C@@H](CC(C)C)C(=O)N[C@@H](CC(C)C)C(=O)N[C@@H](CC(N)=O)C(=O)N[C@H](C(=O)NCC(=O)NCC(=O)N1CCC[C@H]1C(=O)N[C@@H](CO)C(=O)N[C@@H](CO)C(=O)NCC(=O)N[C@@H](C)C(=O)N1CCC[C@H]1C(=O)N1CCC[C@H]1C(=O)N1CCC[C@H]1C(=O)N[C@@H](CO)C(N)=O)[C@@H](C)O)C(C)C)C(=O)O", "test system": "Sprague-Dawley rat, female", "conditions": "subcutaneous, 100 µg/kg once daily, 14 days", "measurement": "creatinine", "value": "27.6 ± 3 µmol/L"}
{"Compound": "CC(C)(c1cc(Br)c(O)c(Br)c1)c1cc(Br)c(O)c(Br)c1", "test": "ultrafiltration", "test system": "cow milk whey", "conditions": "2000 nM nominal in whole milk", "measurement": "final permeate concentration", "value": "50.9 nM"}
{"Compound": "O[Si](CCCN1CCCCC1)(c1ccc(F)cc1)C1CCCCC1 (stereo not shown)", "test system": "mouse", "conditions": "oral, 20 mg/kg, 0.5 h", "measurement": "plasma concentration", "value": "89.8 nM"}
{"Compound": "C#Cc1c(F)ccc2cc(O)cc(-c3ncc4c(N5CC6CCC(C5)N6C(=O)OC(C)OC(=O)CC5CCOCC5)nc(OC[C@@]56CCCN5C[C@H](F)C6)nc4c3F)c12 (stereo partly shown)", "test": "chemical stability", "test system": "simulated intestinal fluid", "conditions": "1 µM, 30 min", "measurement": "compound remaining", "value": "99.6%"}
{"Compound": "CSCC[C@H](NC(=O)[C@@H](NC(=O)[C@H](CC(C)C)NC(=O)[C@@H](NC(=O)[C@H](Cc1c[nH]cn1)NC(=O)CCCCCNC(=O)[C@H](CCCNC(=N)N)NC(=O)[C@H](CCCNC(=N)N)NC(=O)[C@H](CCCNC(=N)N)NC(=O)[C@H](CCC(N)=O)NC(=O)[C@H](CCCNC(=N)N)NC(=O)[C@H](CCCNC(=N)N)NC(=O)[C@H](CCCCN)NC(=O)[C@H](CCCCN)NC(=O)[C@H](CCCNC(=N)N)NC(=O)CNC(=O)[C@@H](N)Cc1ccc(O)cc1)C(C)C)C(C)C)C(=O)N[C@@H](CS)C(=O)N[C@@H](C)C(=O)N[C@H](C(N)=O)[C@@H](C)O", "test system": "C57BL/6J mice", "conditions": "Alzet osmotic pump, 3 mg/kg, 8 weeks", "measurement": "MCH", "value": "14.2 pg and 14.8 pg and 13.8 pg"}
{"Compound": "[2H]C([2H])([2H])C1(C([2H])([2H])[2H])NC(=O)N(c2ccc(F)c(C(C)(F)F)c2)C1=O", "test system": "beagle dog, male and female", "conditions": "oral, single dose", "measurement": "NOAEL", "value": "≥ 150 mg/kg"}
{"Compound": "O=C1NC2(CC2)COc2ncc(F)cc2[C@H]2COCCN2c2ccn3ncc1c3n2", "test system": "Sprague-Dawley rat, female, brain", "conditions": "oral, 5 mg/kg/day, 4 weeks dosing, end of recovery", "measurement": "organ-to-body weight ratio", "value": "0.68 ± 0.039%"}
{"Compound": "CC[C@H](C)[C@H](NC(=O)[C@H](CCC(N)=O)NC(=O)[C@H](Cc1c[nH]cn1)NC(=O)[C@H](C)NC(=O)[C@H](CC(C)C)NC(=O)[C@H](CCCCN)NC(=O)[C@H](CCC(N)=O)NC(=O)[C@@H](NC(=O)[C@@H](NC(=O)[C@@H]1CSSC[C@H](NC(=O)CNC(=O)[C@H](Cc2ccccc2)NC(=O)[C@H](CO)NC(=O)[C@H](CCCNC(=N)N)NC(=O)[C@H](CC(C)C)NC(=O)CNC(=O)[C@H](CCC(N)=O)NC(=O)[C@H](Cc2ccccc2)NC(=O)[C@H](CC(N)=O)NC(=O)[C@H](CC(N)=O)NC(=O)[C@H](CCSC)NC(=O)[C@H](CO)NC(=O)[C@H](CCC(N)=O)NC(=O)[C@H](CCCNC(=N)N)NC(=O)[C@@H](N)Cc2ccc(O)cc2)C(=O)N[C@@H](CCCNC(=N)N)C(=O)N[C@@H](Cc2ccccc2)C(=O)NCC(=O)N[C@@H]([C@@H](C)O)C(=O)N1)[C@@H](C)O)C(C)C)C(=O)N[C@@H](Cc1ccc(O)cc1)C(=O)N[C@@H](CCC(N)=O)C(=O)N[C@@H](Cc1ccccc1)C(=O)N[C@H](C(=O)N[C@@H](CC(=O)O)C(=O)N[C@@H](CCCCN)C(=O)N[C@@H](CC(=O)O)C(=O)N[C@@H](CCCCN)C(=O)N[C@@H](CC(=O)O)C(=O)N[C@@H](CC(N)=O)C(=O)N[C@H](C(=O)N[C@@H](C)C(=O)N1CCC[C@H]1C(=O)N[C@@H](CCCNC(=N)N)C(=O)N[C@@H](CO)C(=O)N[C@@H](CCCCN)C(=O)N[C@H](C(=O)N[C@@H](CO)C(=O)N1CCC[C@H]1C(=O)N[C@@H](CCC(N)=O)C(=O)NCC(=O)N[C@@H](Cc1ccc(O)cc1)C(=O)NCC(=O)O)[C@@H](C)CC)C(C)C)[C@@H](C)O", "test system": "human EDTA plasma", "conditions": "3 h, 4 °C, storage stability", "scale": "baseline: untreated samples", "measurement": "recovery", "value": "113%"}
{"note": "A few entries again:"}
{"Compound": "CSCC[C@H](NC(=O)[C@@H](NC(=O)[C@H](CC(C)C)NC(=O)[C@@H](NC(=O)[C@H](Cc1c[nH]cn1)NC(=O)CCCCCNC(=O)[C@H](CCCNC(=N)N)NC(=O)[C@H](CCCNC(=N)N)NC(=O)[C@H](CCCNC(=N)N)NC(=O)[C@H](CCC(N)=O)NC(=O)[C@H](CCCNC(=N)N)NC(=O)[C@H](CCCNC(=N)N)NC(=O)[C@H](CCCCN)NC(=O)[C@H](CCCCN)NC(=O)[C@H](CCCNC(=N)N)NC(=O)CNC(=O)[C@@H](N)Cc1ccc(O)cc1)C(C)C)C(C)C)C(=O)N[C@@H](CS)C(=O)N[C@@H](C)C(=O)N[C@H](C(N)=O)[C@@H](C)O", "test system": "C57BL/6J mice", "conditions": "Alzet osmotic pump, 3 mg/kg, 8 weeks", "measurement": "MCH", "value": "14.2 pg and 14.8 pg and 13.8 pg"}
{"Compound": "[2H]C([2H])([2H])C1(C([2H])([2H])[2H])NC(=O)N(c2ccc(F)c(C(C)(F)F)c2)C1=O", "test system": "beagle dog, male and female", "conditions": "oral, single dose", "measurement": "NOAEL", "value": "≥ 150 mg/kg"}
